Earlier results that unrelated publications cite.
Each line is one published result; not all experiments were run side by side.
UniProt Q9UNQ0, sequence (whole entry, looked up): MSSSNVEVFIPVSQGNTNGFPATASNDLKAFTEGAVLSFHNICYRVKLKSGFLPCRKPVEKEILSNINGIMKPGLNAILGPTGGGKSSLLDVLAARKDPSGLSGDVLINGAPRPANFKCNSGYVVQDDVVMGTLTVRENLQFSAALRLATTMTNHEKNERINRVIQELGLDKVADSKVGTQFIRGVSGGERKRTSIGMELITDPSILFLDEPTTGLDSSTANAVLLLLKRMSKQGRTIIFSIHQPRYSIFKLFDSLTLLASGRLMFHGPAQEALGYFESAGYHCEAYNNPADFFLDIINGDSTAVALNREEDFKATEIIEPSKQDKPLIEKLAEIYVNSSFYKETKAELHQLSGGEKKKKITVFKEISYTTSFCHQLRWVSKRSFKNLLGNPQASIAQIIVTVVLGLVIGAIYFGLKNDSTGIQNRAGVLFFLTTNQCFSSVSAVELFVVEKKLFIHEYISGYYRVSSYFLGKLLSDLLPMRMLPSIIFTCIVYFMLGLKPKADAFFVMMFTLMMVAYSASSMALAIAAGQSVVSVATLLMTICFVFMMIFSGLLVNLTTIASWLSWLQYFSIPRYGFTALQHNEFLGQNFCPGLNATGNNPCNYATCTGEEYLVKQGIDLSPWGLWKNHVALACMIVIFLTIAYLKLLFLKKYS

For `CC(=O)Nc1c(C(C)=O)c(=O)n(C)c2nc(-c3ccc(Cl)cc3Cl)c(-c3ccc(Cl)cc3)cc12`, the Ki was 799 nM (SLC6A3; MSD Pharma Taiwan panel screen).
`Cl.Nc1nc2ccc(OC(F)(F)F)cc2s1` — result for activity class: “inactive” (Toxoplasma gondii; parasite growth; concentration not given, published screen).
With `Cc1nc(NCc2cnccn2)ncc1C(=O)N1CCC2(CCOCC2)C1` the IC50 was 3000 nM (VNN1 (human); cellular activity).
`O=C(O)CC1CCN(C(=O)c2ccc(Cl)c(Cn3ccc4cc(C(F)(F)F)cc(Cl)c43)c2Cl)CC1`: “rosuvastatin Cmax increase” 141% (Broad substrate specificity ATP-binding cassette transporter ABCG2 (ABCG2, Homo sapiens, UniProt Q9UNQ0); inhibitor; human; oral, 375 mg once daily).
`CNC(=O)c1ccc(Nc2ncc(C(F)(F)F)c(NCc3nccnc3N(C)S(C)(=O)=O)n2)cc1` has an IC50 of 75.3 nM (MAP3K9; kinase activity).
`Cc1cnc(N2CC3(CCOCC3)C2)c(C(=O)Nc2ccc(C(=O)N3CCc4cc(C(=O)Nc5c(C)cccc5F)sc4-c4ccccc43)cc2)c1` has an ID50 of 0.021 mg/kg (respiratory syncytial virus; viral replication, plaque reduction; mouse, lung homogenate).
For `CC(=O)N1CCC(c2ccc(C(=O)NC3=NCCN3)cc2C(F)(F)F)CC1`, the IC50 was > 10000 nM (SLC9A1; cellular activity).
For `CCCCCN1C[C@H](O)[C@@H](O)[C@H](O)[C@@H]1CO`, inhibition read “inactive” (maltase; concentration not given).

Some of these lines once more:
`O=C(O)CC1CCN(C(=O)c2ccc(Cl)c(Cn3ccc4cc(C(F)(F)F)cc(Cl)c43)c2Cl)CC1`: “rosuvastatin Cmax increase” 141% (Broad substrate specificity ATP-binding cassette transporter ABCG2 (ABCG2, Homo sapiens, UniProt Q9UNQ0); inhibitor; human; oral, 375 mg once daily).
